Published values pooled from the literature.
Protocols differ between the studies behind these lines. ± marks the error that the study gave. In brackets after ≈: the same amount, converted by molar mass.
Ephx2: Bifunctional epoxide hydrolase 2 (Ephx2, Mus musculus, UniProt P34914)
Chain of UniProt P34914 (whole entry, looked up): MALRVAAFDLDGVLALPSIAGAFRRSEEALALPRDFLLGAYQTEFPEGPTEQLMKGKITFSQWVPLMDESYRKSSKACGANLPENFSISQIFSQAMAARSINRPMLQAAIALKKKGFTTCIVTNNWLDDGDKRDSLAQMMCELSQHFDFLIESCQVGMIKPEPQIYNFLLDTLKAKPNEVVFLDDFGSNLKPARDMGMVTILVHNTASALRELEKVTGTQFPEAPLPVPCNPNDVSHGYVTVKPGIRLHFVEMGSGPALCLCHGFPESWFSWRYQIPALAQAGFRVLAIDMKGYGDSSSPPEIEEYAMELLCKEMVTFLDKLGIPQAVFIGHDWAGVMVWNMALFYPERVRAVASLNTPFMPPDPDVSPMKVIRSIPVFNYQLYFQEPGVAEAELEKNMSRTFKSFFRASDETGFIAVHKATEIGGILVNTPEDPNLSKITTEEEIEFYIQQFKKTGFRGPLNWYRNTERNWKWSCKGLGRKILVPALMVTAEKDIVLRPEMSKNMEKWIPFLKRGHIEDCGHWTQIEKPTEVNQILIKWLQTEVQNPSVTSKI
Chain of UniProt P49888 (whole entry, looked up): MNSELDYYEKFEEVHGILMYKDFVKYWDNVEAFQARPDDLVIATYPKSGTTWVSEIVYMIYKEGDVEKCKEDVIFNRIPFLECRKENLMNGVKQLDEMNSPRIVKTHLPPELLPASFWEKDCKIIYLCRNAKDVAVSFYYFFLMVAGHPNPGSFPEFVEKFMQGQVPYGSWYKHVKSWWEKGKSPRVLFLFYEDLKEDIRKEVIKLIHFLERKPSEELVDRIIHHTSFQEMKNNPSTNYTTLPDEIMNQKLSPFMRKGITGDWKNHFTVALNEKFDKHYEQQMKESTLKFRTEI
Chain of UniProt Q12809 (whole entry, looked up): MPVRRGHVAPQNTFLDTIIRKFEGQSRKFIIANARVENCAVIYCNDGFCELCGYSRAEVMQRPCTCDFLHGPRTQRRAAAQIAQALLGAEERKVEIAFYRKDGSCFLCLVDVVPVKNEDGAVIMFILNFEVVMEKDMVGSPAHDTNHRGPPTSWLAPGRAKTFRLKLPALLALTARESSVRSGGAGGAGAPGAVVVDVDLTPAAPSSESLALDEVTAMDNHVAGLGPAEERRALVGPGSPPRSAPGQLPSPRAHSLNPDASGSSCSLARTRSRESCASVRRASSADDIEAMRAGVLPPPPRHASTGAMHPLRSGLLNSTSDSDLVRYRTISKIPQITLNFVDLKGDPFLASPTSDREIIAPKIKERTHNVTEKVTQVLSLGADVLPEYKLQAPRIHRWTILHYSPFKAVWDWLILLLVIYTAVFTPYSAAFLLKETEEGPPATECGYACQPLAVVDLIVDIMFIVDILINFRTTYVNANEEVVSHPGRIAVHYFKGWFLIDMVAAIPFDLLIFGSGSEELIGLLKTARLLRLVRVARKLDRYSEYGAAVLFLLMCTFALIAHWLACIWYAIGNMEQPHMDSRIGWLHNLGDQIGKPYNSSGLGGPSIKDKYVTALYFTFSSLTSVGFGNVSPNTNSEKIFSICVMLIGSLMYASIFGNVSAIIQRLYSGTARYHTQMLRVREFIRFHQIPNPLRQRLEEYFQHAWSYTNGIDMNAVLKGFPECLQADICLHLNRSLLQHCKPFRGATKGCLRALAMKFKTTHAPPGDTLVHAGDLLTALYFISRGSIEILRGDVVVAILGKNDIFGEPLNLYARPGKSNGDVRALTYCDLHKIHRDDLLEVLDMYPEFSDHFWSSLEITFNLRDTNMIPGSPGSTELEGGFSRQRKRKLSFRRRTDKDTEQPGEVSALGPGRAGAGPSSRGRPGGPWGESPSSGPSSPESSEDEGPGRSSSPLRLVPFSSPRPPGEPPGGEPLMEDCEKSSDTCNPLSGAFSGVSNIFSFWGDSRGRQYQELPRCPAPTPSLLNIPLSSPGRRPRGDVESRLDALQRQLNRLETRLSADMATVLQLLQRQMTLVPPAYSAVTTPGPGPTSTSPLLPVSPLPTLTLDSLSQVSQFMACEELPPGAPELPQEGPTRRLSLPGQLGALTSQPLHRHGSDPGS

| SMILES | tested on | test | test system | conditions | quantity | result |
| --- | --- | --- | --- | --- | --- | --- |
| CN1CC[C@]23c4c5ccc(O)c4O[C@H]2C(=O)CC[C@H]3[C@H]1C5 | Sulfotransferase 1E1 (SULT1E1, Homo sapiens, UniProt P49888) | substrate | – | 50 µM, 10 min, pH 7.5, 37 °C | specific activity | 0.18 ± 0.03 nmol/min/mg |
| Cc1ccccc1CN1CCC(C(=O)Nc2ccc(-c3cnc4ccccc4c3)cc2)CC1 | – | – | sodium phosphate buffer, 1% DMSO | pH 7.4 | solubility | 63 to 125 µM (≈ 27.4 to 54.4 µg/mL) |
| C=CC(=O)N1CC[C@H](n2nc(C#Cc3cc(OC)cc(OC)c3)c3c(N)ncnc32)C1 | – | – | mouse | 3 mg/kg | free AUC | 44 ng·h/mL |
| Cc1cc(/C=C/C#N)cc(C)c1Oc1nc(Nc2ccc(C#N)c(F)c2)nc2ccsc12 | Voltage-gated inwardly rectifying potassium channel KCNH2 (KCNH2, Homo sapiens, UniProt Q12809) | ion current, inhibitor | – | 3 µM | inhibition | 13.3% |
| Cc1ccc(S(=O)(=O)Nc2c(N3CCC(NC(=O)Nc4ccc(OC(F)(F)F)cc4)CC3)c(=O)c2=O)cc1 | Ephx2 | – | – | – | IC50 | 76.1 ± 10.1 nM |
| C(#Cc1c[nH]c2nccc(-c3ccncc3)c12)c1cccnc1 | – | – | mouse C57BL/6, male | intravenous, 2 mg/kg | half-life | 28.2 ± 16.8 min |
| Cc1ccc(CN2CCC(C(=O)Nc3ccc(-c4cnc5ccccc5c4)cc3)CC2)cc1 | – | – | sodium phosphate buffer, 1% DMSO | pH 7.4 | solubility | 31 to 63 µM (≈ 13.5 to 27.4 µg/mL) |
| Cc1cc(OCc2nnc(SC3CCCC3)n2-c2cccnc2)ccc1-c1ccc(S(C)(=O)=O)cc1 | UACC-257 | – | – | – | GI50 | 899 nM |
| O=C(Nc1ccc(-c2ccc3ccccc3n2)cc1)C1CCN(Cc2ccccc2F)CC1 | – | – | sodium phosphate buffer, 1% DMSO | pH 7.4 | solubility | 31 to 63 µM (≈ 13.6 to 27.7 µg/mL) |
| CN1CCN(c2ccc(Nc3cc(-c4cccc(N5CCc6c(sc7c6CC(C)(C)C7)C5=O)c4CO)cn(C)c3=O)nc2)CC1 | – | – | human pooled plasma | 4 h | fraction unbound | 0.02 |
| CC(C)C[C@H](NC(=O)[C@H](Cc1ccccc1)NC(=O)CNC(=O)CNC(=O)[C@@H](N)Cc1ccc(O)cc1)C(=O)N[C@@H](CCCN=C(N)N)C(=O)O | bovine brain microvessel endothelial cells | – | cell monolayer | 18.6 µM, 4 °C, apical to basolateral | apparent permeability | 11.1 ×10⁻⁶ cm/s |
| Cc1ccc(S(=O)(=O)Nc2c(N3CCC(NC(=O)Nc4ccc(F)c(Cl)c4)CC3)c(=O)c2=O)cc1 | Ephx2 | – | – | – | IC50 | 193 ± 20.5 nM |

Some of these lines once more:
| SMILES | tested on | test | test system | conditions | quantity | result |
| --- | --- | --- | --- | --- | --- | --- |
| CC(C)C[C@H](NC(=O)[C@H](Cc1ccccc1)NC(=O)CNC(=O)CNC(=O)[C@@H](N)Cc1ccc(O)cc1)C(=O)N[C@@H](CCCN=C(N)N)C(=O)O | bovine brain microvessel endothelial cells | – | cell monolayer | 18.6 µM, 4 °C, apical to basolateral | apparent permeability | 11.1 ×10⁻⁶ cm/s |
